# Assay results gathered from unrelated publications.
# ± marks the error that the study gave.
# Route: oral
Structure (SMILES),test,test system,setting,AUC(0-24)
O=C(c1ccc(F)c(F)c1Nc1ccc(I)cc1F)N1CC(O)([C@@H]2CCCCN2)C1,,"human, plasma","60 mg, steady state",4340 ng·h/mL
CC(C)(Sc1ccncc1-c1ccc(C#N)c2ccccc12)C(=O)O,,"human, male, Japanese, plasma","2.5 mg, day 6, fed, single dose",33.8 ng·h/mL
CC(C)[C@H](N)C(=O)NCCCS(=O)(=O)O,,"human, plasma","340 mg capsule, day 14, fed, multiple dosing",13800 ± 2220 ng·h/mL
O=c1[nH]c(=O)c(Cc2cccc(C(F)(F)F)c2)c([C@H]2CC[C@H](c3ccccc3)CC2)[nH]1,,"human, plasma","150 mg once daily, day 1, geometric mean",896 ng·h/mL
CC(C)[C@@H](CS(=O)(=O)C(C)C)N1C(=O)[C@@](C)(CC(=O)O)C[C@H](c2cccc(Cl)c2)[C@H]1c1ccc(Cl)cc1,,healthy human,"60 mg single dose, old tablet, fasted",1980 ng·h/mL
CCN1C(=O)CNc2ncc(-c3ccc(-c4nc[nH]n4)nc3C)nc21,"LC-MS, noncompartmental","human, plasma","10 mg twice daily, first dose",622 ng·h/mL
O=c1[nH]c(=O)c2c[nH]nc2[nH]1,,"human male, plasma","300 mg once daily, geometric LS mean",255000 ng·h/mL
C=C(C)[C@@H]1CC[C@]2(NCCN3CCS(=O)(=O)CC3)CC[C@]3(C)[C@H](CC[C@@H]4[C@@]5(C)CC=C(C6=CC[C@@](CF)(C(=O)O)CC6)C(C)(C)[C@@H]5CC[C@]43C)[C@@H]12,,"human, plasma","200 mg multiple doses, day 1",8260 ng·h/mL
CCS(=O)(=O)N1CC(CC#N)(n2cc(-c3ncnc4[nH]ccc34)cn2)C1,,"healthy Chinese human subjects, plasma","4 mg, single dose, mean",256 ng·h/mL
CC(C)(Sc1ccncc1-c1ccc(C#N)c2ccccc12)C(=O)O,,"human, male, plasma","2.5 mg once daily, day 14, added: febuxostat 80 mg once daily",34.6 ng·h/mL
CC(C)c1nc(CN(C)C(=O)N[C@H](C(=O)N[C@@H](Cc2ccccc2)C[C@H](O)[C@H](Cc2ccccc2)NC(=O)OCc2cncs2)C(C)C)cs1,,"HIV-infected humans, plasma","100 mg once daily, geometric mean, added: darunavir 900 mg once daily, with abacavir",5210 ng·h/mL

# Repeated from above:
Structure (SMILES),test,test system,setting,AUC(0-24)
O=c1[nH]c(=O)c2c[nH]nc2[nH]1,,"human male, plasma","300 mg once daily, geometric LS mean",255000 ng·h/mL
